Results from different studies.
Lines come from different studies, so protocols differ. “And” joins repeats or separate records; there may be more than shown.
Target: Serine/threonine-protein kinase PLK4 (PLK4, Homo sapiens, UniProt O00444)
One construct used (O00444 1-970): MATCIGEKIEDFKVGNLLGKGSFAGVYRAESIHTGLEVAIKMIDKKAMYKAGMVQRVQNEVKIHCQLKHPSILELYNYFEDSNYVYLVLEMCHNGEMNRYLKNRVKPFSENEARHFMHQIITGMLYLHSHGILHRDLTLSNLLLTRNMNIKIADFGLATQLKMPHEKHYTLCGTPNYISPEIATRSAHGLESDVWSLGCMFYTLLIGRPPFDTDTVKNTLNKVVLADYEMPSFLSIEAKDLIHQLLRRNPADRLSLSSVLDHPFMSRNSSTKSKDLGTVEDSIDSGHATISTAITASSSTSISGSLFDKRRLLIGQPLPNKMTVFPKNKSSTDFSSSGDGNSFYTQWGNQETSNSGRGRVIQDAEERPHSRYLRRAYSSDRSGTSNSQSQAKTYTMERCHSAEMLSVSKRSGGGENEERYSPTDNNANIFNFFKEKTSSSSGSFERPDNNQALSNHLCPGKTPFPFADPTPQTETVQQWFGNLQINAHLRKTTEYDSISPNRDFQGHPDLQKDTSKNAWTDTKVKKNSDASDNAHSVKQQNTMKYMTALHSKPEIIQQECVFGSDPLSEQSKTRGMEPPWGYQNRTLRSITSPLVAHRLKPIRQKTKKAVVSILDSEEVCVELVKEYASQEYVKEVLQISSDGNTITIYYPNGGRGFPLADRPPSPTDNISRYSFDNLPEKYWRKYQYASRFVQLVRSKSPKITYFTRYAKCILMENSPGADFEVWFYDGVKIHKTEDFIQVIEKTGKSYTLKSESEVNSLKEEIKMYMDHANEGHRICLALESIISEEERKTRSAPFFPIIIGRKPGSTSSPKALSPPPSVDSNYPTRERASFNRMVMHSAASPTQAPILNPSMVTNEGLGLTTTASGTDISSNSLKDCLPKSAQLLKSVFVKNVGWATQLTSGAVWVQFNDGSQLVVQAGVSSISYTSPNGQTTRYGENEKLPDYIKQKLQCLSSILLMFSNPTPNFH

O=C(Cc1ccc(OCc2ccccc2)cc1)NC1(C(=O)O)CCN(C(=O)c2ccc(-c3cccc(Cl)c3)cc2)CC1 — activity vs control (enzyme activity, inhibitor; 10 µM): 103%
CNC(=O)C1CCN(c2cc(C)c(F)cc2NC(=O)c2ccc(-c3cc(O)ccc3C)c(C)c2)CC1 — remaining binding (binding, competition with immobilised ligand; 1 µM): 94%
C=CC(=O)N1CCc2ccc(-n3c(=O)ccc4cnc5ccc(-c6cnn(C)c6)cc5c43)cc21 — remaining binding (KINOMEscan; 1 µM; reference: DMSO control): 50%
CCN1CCN(Cc2ccc(C(=O)Nc3ccc(C)c(NCc4cnc5[nH]ccc5c4OC)c3)cc2C(F)(F)F)CC1 — remaining binding (binding, competition with immobilised ligand; 1 µM): 83%
COc1cc(Nc2nc(C)cc(-c3cnn4nc(OC)ccc34)n2)cc(C(F)(F)F)c1 — remaining activity (inhibitor; 1 µM; reference: control): 49%
CN1CCN(Cc2ccc(NC(=O)c3cccc(C#Cc4cnc(N)c5ncccc45)c3)cc2C(F)(F)F)CC1 — remaining binding (cell-free assay, competition with immobilised ligand; 50 nM): 71%
Nc1ncc(-c2cc(-c3cnn(CC(F)(F)F)c3)ncc2F)nc1C(=O)NC1CNCC(F)C1 (stereo not shown) — remaining activity (enzyme activity; 1 µM; reference: DMSO control): 93%
CNC(=O)C[C@H](Cc1ccc(C#N)cc1)NC(=O)c1cc(-c2ccc(CN[C@H](C)c3ccc(C)cc3)o2)ccc1Cl — activity vs control (enzyme activity, inhibitor; 1 µM): 90%
CNC1C[S+]2CC[S+]3CC[S+](C1)[Ru-4]321([N]=C=S)[n]2c3ccc(OC)cc3c3c4c(c5cc(F)c[n+]1c5c32)C(=O)NC4=O (stereo not shown) — remaining binding (KinomeScan; 0.1 µM; reference: untreated): 53%
Cc1ccc(-c2c(/C=C(\C#N)C(=O)NC(C)C)n(CCCO)c3ncnc(N)c23)cc1 — remaining binding (cell-free assay, competition with immobilised ligand; 1 µM): 100%
C=CC(=O)Nc1cccc(-c2cnc3[nH]cc(C(=O)NC(C)(C)C)c3n2)c1 — inhibition (kinase activity; 0.1 µM): 8% and 16%
C=CC(=O)N1CCCC(n2c(=O)c3ncccc3n(Cc3ccc(Oc4ccccc4)cc3)c2=O)C1 (stereo not shown) — remaining binding (cell-free assay, competition with immobilised ligand; 1 µM): 94%
Cc1cnc2nc1Nc1cccc(c1)COC/C=C/COCc1cc(ccc1OCCN1CCOCC1)N2 — remaining binding (binding; 0.1 µM): 54%
Cc1cccc(O[C@H]2CCC[C@@H](C(C)CNCc3ccncc3)C2)c1 (relative stereo) — inhibition (enzyme activity, inhibitor; 1 µM): -7%
NC(=O)[C@@H](O)C[C@H]1CCc2sc3ncnc(O[C@H]4CC[C@H](N5CCOCC5)CC4)c3c21 — inhibition (enzyme activity, inhibitor; 10 µM): 3%
CN1CC[C@@H](COc2cnc(C#N)cc2-c2ccn3nc(NC(=O)C4CC4)cc3c2)C1 — inhibition (enzyme activity, inhibitor; 1 µM): 1%

For quick reference, copied from above:
NC(=O)[C@@H](O)C[C@H]1CCc2sc3ncnc(O[C@H]4CC[C@H](N5CCOCC5)CC4)c3c21 — inhibition (enzyme activity, inhibitor; 10 µM): 3%
